Measured values of several laboratories.
Compare with care: the assays were run in different laboratories. Several values in a cell are separate wells, animals, samples, runs or records. ± marks the error that the study gave.
ACHE: Acetylcholinesterase (ACHE, Homo sapiens, UniProt P22303)
Chain of UniProt P22303 (whole entry, looked up): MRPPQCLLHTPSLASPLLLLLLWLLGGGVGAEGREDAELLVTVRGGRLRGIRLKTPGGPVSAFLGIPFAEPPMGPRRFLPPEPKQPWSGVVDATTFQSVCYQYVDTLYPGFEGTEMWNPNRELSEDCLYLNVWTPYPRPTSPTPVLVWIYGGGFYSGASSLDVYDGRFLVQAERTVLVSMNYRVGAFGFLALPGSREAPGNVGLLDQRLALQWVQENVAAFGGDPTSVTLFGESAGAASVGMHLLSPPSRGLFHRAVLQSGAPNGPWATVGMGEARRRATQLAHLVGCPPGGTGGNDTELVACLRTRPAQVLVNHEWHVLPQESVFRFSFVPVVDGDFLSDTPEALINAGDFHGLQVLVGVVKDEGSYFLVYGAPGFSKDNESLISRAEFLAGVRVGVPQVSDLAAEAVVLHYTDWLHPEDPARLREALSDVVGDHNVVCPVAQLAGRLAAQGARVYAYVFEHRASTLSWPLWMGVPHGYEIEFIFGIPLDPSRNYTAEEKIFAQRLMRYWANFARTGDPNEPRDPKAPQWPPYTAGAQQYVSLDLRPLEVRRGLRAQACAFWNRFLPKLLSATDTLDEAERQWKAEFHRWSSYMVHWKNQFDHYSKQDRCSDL
PFF0160c E182D: Dihydroorotate dehydrogenase (quinone), mitochondrial (PFF0160c, Plasmodium falciparum, UniProt Q08210, E182D)
Chain of UniProt D0VWV4 (whole entry, looked up): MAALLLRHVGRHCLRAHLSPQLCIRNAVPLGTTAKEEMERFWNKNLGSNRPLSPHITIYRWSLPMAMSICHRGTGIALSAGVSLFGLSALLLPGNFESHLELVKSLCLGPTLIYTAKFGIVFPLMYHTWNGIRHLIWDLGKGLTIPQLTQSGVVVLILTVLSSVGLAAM
Chain of UniProt A5GZW8 (whole entry, looked up): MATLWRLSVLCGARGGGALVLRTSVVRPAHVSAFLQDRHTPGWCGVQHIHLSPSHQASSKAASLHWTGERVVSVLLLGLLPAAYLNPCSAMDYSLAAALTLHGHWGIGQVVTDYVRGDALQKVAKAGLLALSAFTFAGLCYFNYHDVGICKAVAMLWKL
Chain of UniProt Q007T0 (whole entry, looked up): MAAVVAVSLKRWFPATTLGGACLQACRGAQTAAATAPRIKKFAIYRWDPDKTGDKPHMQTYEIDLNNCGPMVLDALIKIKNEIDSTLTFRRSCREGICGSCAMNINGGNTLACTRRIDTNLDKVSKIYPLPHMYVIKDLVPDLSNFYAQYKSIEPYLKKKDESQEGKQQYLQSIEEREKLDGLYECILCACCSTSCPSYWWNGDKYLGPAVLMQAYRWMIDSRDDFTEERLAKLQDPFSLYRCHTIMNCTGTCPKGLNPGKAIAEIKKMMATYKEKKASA
Chain of UniProt P36544 (whole entry, looked up): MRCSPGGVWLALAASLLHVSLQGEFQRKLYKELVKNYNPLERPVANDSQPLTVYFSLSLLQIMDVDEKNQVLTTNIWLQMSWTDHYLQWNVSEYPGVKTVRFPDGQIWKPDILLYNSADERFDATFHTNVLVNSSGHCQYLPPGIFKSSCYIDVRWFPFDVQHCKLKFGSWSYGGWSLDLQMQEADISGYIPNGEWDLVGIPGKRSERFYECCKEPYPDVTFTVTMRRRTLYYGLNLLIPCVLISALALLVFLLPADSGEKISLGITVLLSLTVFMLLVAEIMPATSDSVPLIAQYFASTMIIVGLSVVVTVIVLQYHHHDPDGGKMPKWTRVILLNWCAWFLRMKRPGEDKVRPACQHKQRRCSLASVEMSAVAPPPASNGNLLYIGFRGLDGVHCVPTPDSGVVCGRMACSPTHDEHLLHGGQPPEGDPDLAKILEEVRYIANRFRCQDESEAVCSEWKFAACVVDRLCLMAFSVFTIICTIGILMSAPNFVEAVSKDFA
Chain of UniProt Q9H3Y6 (whole entry, looked up): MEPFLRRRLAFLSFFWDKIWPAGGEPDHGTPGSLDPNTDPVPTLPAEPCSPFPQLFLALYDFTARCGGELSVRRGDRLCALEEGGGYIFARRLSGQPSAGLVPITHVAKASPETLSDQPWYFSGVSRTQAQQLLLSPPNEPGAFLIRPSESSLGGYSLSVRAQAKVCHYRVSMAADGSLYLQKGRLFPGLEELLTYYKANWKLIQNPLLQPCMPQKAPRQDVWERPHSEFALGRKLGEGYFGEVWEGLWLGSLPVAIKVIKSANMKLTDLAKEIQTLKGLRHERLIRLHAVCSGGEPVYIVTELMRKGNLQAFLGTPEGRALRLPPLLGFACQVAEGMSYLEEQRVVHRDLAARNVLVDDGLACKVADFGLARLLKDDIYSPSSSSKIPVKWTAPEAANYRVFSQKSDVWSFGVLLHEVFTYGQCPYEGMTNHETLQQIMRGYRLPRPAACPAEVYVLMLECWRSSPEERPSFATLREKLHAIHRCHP
Chain of UniProt P18089 (whole entry, looked up): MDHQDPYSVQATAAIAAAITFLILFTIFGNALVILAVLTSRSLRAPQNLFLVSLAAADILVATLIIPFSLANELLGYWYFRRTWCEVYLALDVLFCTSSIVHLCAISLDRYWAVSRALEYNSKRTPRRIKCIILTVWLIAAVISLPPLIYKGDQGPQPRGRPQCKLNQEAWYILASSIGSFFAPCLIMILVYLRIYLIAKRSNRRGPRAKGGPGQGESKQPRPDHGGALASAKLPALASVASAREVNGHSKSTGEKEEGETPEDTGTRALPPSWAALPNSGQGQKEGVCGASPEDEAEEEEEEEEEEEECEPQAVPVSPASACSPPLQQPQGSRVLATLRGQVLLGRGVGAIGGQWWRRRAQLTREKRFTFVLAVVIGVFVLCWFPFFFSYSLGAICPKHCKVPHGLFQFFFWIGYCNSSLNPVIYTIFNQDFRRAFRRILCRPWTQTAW
Chain of UniProt O95881 (whole entry, looked up): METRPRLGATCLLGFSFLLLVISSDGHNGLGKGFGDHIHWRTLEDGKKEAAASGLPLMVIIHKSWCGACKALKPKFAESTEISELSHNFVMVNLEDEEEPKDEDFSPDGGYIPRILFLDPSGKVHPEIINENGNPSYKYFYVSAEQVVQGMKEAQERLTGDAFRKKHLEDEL
Chain of UniProt P14867 (whole entry, looked up): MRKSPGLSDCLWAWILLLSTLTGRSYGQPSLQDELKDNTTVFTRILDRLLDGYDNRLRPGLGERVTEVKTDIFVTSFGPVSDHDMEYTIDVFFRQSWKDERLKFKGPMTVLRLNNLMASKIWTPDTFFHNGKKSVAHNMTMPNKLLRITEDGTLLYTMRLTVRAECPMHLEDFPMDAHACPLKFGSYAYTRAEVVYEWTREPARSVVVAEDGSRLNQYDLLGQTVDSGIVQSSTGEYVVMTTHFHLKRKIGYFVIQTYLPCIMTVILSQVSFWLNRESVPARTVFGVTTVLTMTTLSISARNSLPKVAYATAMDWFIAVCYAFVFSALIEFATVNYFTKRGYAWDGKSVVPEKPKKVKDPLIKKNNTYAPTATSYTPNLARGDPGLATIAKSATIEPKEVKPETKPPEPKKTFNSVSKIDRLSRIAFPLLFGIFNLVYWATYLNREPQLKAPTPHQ
Chain of UniProt P36873 (whole entry, unmodified, looked up): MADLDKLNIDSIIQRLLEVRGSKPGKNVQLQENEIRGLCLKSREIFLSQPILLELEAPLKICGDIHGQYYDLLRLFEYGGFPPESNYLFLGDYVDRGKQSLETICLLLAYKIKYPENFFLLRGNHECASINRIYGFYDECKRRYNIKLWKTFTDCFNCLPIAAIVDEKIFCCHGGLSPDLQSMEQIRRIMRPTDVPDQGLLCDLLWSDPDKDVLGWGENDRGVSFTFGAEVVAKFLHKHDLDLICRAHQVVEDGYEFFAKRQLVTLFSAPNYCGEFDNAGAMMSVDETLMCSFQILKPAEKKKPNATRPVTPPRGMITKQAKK
Chain of UniProt Q62351 (whole entry, looked up): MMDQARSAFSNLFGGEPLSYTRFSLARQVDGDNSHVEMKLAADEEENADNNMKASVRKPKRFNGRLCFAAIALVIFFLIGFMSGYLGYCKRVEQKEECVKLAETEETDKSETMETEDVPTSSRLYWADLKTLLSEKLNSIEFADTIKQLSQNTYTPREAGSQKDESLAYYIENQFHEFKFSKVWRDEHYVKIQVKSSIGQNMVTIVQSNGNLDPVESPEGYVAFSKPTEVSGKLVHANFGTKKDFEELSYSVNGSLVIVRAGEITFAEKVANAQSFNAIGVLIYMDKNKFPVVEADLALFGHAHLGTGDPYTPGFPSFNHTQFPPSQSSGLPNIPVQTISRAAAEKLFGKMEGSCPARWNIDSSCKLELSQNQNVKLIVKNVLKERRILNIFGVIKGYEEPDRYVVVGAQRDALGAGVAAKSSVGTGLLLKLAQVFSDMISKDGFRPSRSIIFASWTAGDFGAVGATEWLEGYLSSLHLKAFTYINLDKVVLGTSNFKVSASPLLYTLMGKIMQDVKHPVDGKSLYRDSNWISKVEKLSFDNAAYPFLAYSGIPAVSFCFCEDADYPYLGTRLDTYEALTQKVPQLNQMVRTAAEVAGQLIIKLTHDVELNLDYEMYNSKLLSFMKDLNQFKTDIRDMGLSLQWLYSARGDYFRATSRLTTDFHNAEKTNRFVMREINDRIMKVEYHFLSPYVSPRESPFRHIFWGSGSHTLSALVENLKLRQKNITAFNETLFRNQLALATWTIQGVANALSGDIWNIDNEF
Chain of UniProt P23979 (whole entry, unmodified, looked up): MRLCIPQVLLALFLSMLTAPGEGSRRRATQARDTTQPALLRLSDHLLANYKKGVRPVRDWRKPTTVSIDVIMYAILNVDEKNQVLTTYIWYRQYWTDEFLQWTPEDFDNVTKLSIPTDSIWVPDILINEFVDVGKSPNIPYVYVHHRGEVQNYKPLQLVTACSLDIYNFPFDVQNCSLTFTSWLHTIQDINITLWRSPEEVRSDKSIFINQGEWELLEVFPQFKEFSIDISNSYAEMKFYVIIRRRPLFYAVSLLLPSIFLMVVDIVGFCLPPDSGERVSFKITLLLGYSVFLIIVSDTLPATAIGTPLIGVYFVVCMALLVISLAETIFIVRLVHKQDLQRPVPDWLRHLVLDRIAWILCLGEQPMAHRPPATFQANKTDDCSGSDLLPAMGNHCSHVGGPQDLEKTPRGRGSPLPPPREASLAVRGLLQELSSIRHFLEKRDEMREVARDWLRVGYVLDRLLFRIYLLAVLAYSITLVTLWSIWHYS

SMILES	target	test	test system	conditions	how to read	endpoint	value
COCC(=O)O[C@]1(CCN(C)CCCc2nc3ccccc3[nH]2)CCc2cc(F)ccc2[C@@H]1C(C)C	ACHE	–	biochemical	concentration not given	–	activity class	inactive
O=C1NC(=O)C(c2ccccc2)(c2ccccc2)N1	GABA-A receptor alpha-1/beta-3, with gamma-2 subunit (GABRA1/GABRB3, Homo sapiens, UniProt P14867+P28472)	[3H]muscimol binding, positive modulator	–	300 µM, unit not given, added: [3H]muscimol 2 nM	relative to: etomidate 10 µM	enhancement	0.3
Nc1ccc2c3c(cccc13)C(=O)NC2=O	Beta-lactamase TEM (bla, Escherichia coli, UniProt P62593)	inhibitor	–	–	–	Hill coefficient	0.9
CC[C@H](C)[C@H](NC(=O)CNC(=O)[C@@H](N)CCCCN)C(=O)N[C@@H](CC(C)C)C(=O)N[C@@H](CCCCN)C(=O)N[C@@H](CCCNC(=N)N)C(=O)N[C@@H](CCC(=O)O)C(=O)N[C@@H](CCCCN)C(=O)N[C@@H](CCCNC(=N)N)C(=O)N[C@@H](CC(C)C)C(=O)N[C@@H](CCCNC(=N)N)C(=O)N[C@@H](CCCNC(=N)N)C(=O)N[C@@H](CCCCN)C(=O)N[C@@H](CC(N)=O)C(=O)N[C@H](C(=O)N[C@@H](Cc1c[nH]cn1)C(=O)N[C@@H](Cc1c[nH]c2ccccc12)C(=O)N1CCC[C@H]1C(=O)N[C@@H](CCC(=O)O)C(=O)N[C@@H](CCC(=O)O)C(=O)NCC(=O)N[C@@H](CCCCN)C(=O)N[C@@H](CC(C)C)C(=O)N[C@@H](CCCNC(=N)N)C(=O)N[C@@H](CCC(=O)O)C(=O)N[C@@H](Cc1ccc(O)cc1)C(=O)N[C@@H](Cc1ccccc1)C(=O)N[C@@H](Cc1ccc(O)cc1)C(=O)N[C@@H](Cc1ccccc1)C(=O)N[C@@H](CCC(=O)O)C(=O)N[C@@H](CC(C)C)C(=O)N[C@@H](CC(=O)O)C(=O)N[C@@H](CCC(=O)O)C(=O)N[C@@H](C)C(=O)N[C@@H](CCC(=O)O)C(=O)N[C@@H](CCCNC(=N)N)C(=O)N[C@H](C(=O)N[C@@H](CC(N)=O)C(=O)N[C@H](C(=O)O)C(C)C)C(C)C)C(C)C	Serine/threonine-protein phosphatase PP1-gamma catalytic subunit (Homo sapiens, UniProt P36873)	ITC	–	25 °C	–	ΔH	-34.4 ± 9.6 kcal/mol
O=C(c1ccc(Cl)cc1)N1CCN2C(=O)N(OC(=O)N3CCOc4ccccc43)C(=O)C2C1 (centres unmarked)	PPIA (Homo sapiens, UniProt P62937)	MS-based ABPP	SW-620 conditioned medium	10 µM, 1 h, 37 °C	relative to: compound over DMSO, lower = more inhibition	median protein ratio	1.21
CC(=O)NC[C@H]1[C@H](O)[C@H](O)[C@@H]2[C@H](O)C[C@@H](CO)N21	Spodoptera litura β-N-acetylglucosaminidase	–	crude enzyme	0.0251 µM, run 2, added: p-nitrophenyl GlcNAc	–	inhibition	64.7%
CN1CCN(c2cc(-c3ccncc3)c(-c3ccc4ccccc4c3)nn2)CC1	CRHR1 (Homo sapiens, UniProt P34998)	agonist, FLIPR	–	12.5 µM	–	activation	0.2%
NCCc1c[nH]c2ccc(O)cc12	AANAT Tragulus javanicus	enzyme activity, colorimetric DTNB	–	added: acetyl-CoA	–	Km	230 ± 110 µM
OC1Cc2ccccc2CC1N1CCC2(C=Cc3cc(F)ccc32)CC1 (racemic)	Vesicular acetylcholine transporter (Rattus norvegicus, UniProt Q62666)	–	–	–	relative to: Ki sigma1 over Ki VAChT	selectivity ratio	1.3
CC(C)(C)C(O)C(Oc1ccc(-c2ccccc2)cc1)n1cncn1 (centres unmarked)	Glideosome-associated protein 50 (GAP50, Plasmodium falciparum, UniProt Q8I2X3)	binding, surface plasmon resonance	–	1:1 binding model	–	koff	0.926 s⁻¹
CN1C2CCCC1CC(NC(=O)c1nn(C)c3ccccc13)C2 (centres unmarked)	Htr3a (Mus musculus, UniProt P23979, W183X)	antagonist, voltage clamp	Xenopus oocytes	–	–	Hill coefficient	-1.6 ± 0.1
Cc1nc(Nc2ccc(C)c(Cl)c2)c2c(C)noc2n1	PFF0160c E182D	enzyme activity, DCIP colorimetric	–	–	relative to: E182D mutant over wild type	IC50 ratio	9.8
COc1ccc2c3c([nH]c2c1)CCN(C)CC3.O=C(O)/C=C/C(=O)O	CHRNA7 (Homo sapiens, UniProt P36544)	ion current, inhibitor, two-electrode voltage clamp	Xenopus laevis oocytes	added: 100 µM acetylcholine	–	Hill coefficient	1.9 ± 0.1
CC[C@@H](C)[C@@H](NC(=O)[C@@H](Cc1ccc(O)cc1)NC(=O)[C@H]1CCCN1C(=O)[C@@H](CCCNC(=N)N)NC(=O)[C@H](N)Cc1c[nH]cn1)C(=O)N[C@H](C)C(=O)N[C@H](Cc1c[nH]cn1)C(=O)N[C@H](CCCNC(=N)N)C(=O)N[C@H](CCCCNC(=O)c1cccc(S(=O)(=O)F)c1)C(=O)N[C@H](Cc1ccc(O)cc1)C(=O)N[C@H](CO)C(=O)N[C@H](Cc1ccccc1)C(N)=O	Transferrin receptor protein 1 (Tfrc, Mus musculus, UniProt Q62351)	flow cytometry	RAW264.7	2 h, pH 6, replicate 1, unit not given	relative to: 0 h	surface TFRC expression	0.728
CC(=O)O.CCc1cc2c(cc1CC)CC(NC[C@@H](O)c1ccc(O)c3[nH]c(=O)ccc13)C2	PFF0160c E182D	enzyme activity, DCIP colorimetric	–	–	relative to: E182D mutant over wild type	IC50 ratio	0.8
Cc1nn(C)cc1-c1nc2c(N3CCN(Cc4ccc(Cl)cc4)CC3)c(Cl)cnc2[nH]1	COQ8B (Homo sapiens, UniProt Q96D53)	KINOMEscan	–	1 µM	relative to: DMSO control	remaining binding	45%
C=C(CN(C(=O)c1c(C(F)F)nn(C)c1F)C1CC1)c1ccc(Cl)cc1Cl	SDHD/SDHC/SDHB (Sus scrofa, UniProt A5GZW8+D0VWV4+Q007T0)	enzyme activity, inhibitor, DCIP reduction	pig	0.1 µM, added: DCIP 20 µM	–	reaction velocity	0.00682 µM/s and 0.00691 µM/s and 0.00698 µM/s
c1ccc2c3c(ccc2c1)-c1cccc2cccc-3c12	Aryl hydrocarbon receptor (Danio rerio, UniProt Q9YGV3)	reporter gene, agonist, luciferase reporter	ZF-4	370.37 µM	relative to: vehicle control	fold change	16.6
CCCCCC(=O)O	medium-chain acyl-CoA synthetase A461K	substrate	–	–	–	Km	810 ± 70 µM
Nc1ccn([C@H]2C[C@H](O)[C@@H](COP(=O)(O)OP(=O)(O)OP(=O)(O)O)O2)c(=O)n1	DNA polymerase I, Klenow fragment (polA, Escherichia coli, UniProt P00582, C907S/D424A/L744C)	substrate, single-turnover chemical quench	–	added: dNTP	–	kpol	30 s⁻¹
CC(CC1c2ccccc2CCc2ccccc21)CN(C)C (centres unmarked)	ACHE	–	biochemical	concentration not given	–	activity class	inactive
CCc1ccccc1N=C1c2c(cccc2[N+](=O)[O-])C(=O)C1C(C)=O (centres unmarked)	PFF0160c E182D	enzyme activity, DCIP colorimetric	–	–	relative to: E182D mutant over wild type	IC50 ratio	3.2
COc1cc(Nc2ncc(F)c(Nc3ccc4c(n3)NC(=O)C(C)(C)O4)n2)cc(OC)c1OC	CDKL2 (Homo sapiens, UniProt Q92772)	KINOMEscan	–	10 µM	–	inhibition	58%
[2H]c1c([2H])c([C@]2([2H])CCCN2C(=O)C(C)(C)Oc2ccc3cn[nH]c3c2)c([2H])c([2H])c1C([2H])([2H])[2H]	SRMS (Homo sapiens, UniProt Q9H3Y6)	KINOMEscan	–	1 µM	relative to: DMSO control	remaining binding	73%
COc1ccc(Nc2nn3c(-c4ccccc4)ccnc3c2C(=O)Nc2ccccc2)cc1	α-amylase isoenzymes	native PAGE densitometry, refers to: abnormal band	–	1 mg/mL	–	band share	68.5%
COc1ccc(N2C(=O)N(c3c(C)cccc3Cl)Cc3cnc(Nc4ccc(C5CCN(C)CC5)cc4OC)nc32)nc1	CAMK2B (Homo sapiens, UniProt Q13554)	kinase activity	–	0.5 µM	–	inhibition	1%
C#CCCCCNC(=O)CI	Thioredoxin domain-containing protein 12 (TXNDC12, Homo sapiens, UniProt O95881)	mass spectrometry profiling	H460 cell lysate	100 µM over 10 µM, UniProt O95881	relative to: high over low concentration	reactivity ratio	0.964
CC(C)[N+](C)(CCOC(=O)C1c2ccccc2Oc2ccccc21)C(C)C	ACHE	–	biochemical	concentration not given	–	activity class	inactive
O=C(Nc1cnccc1Cl)N1CCN(Cc2ccc3c(c2)OC(F)(F)O3)CC1	ADRA2B (Homo sapiens, UniProt P18089)	binding	–	10 µM, added: [3H]rauwolscine	–	inhibition	13%

Repeated from above:
SMILES	target	test	test system	conditions	how to read	endpoint	value
Cc1nn(C)cc1-c1nc2c(N3CCN(Cc4ccc(Cl)cc4)CC3)c(Cl)cnc2[nH]1	COQ8B (Homo sapiens, UniProt Q96D53)	KINOMEscan	–	1 µM	relative to: DMSO control	remaining binding	45%
CC(CC1c2ccccc2CCc2ccccc21)CN(C)C (centres unmarked)	ACHE	–	biochemical	concentration not given	–	activity class	inactive
